Published values of several laboratories.
Numbered parts are unrelated; each lists some results of a single study.

Series 1
Target: RNA binding protein fox-1 homolog 2, RRM domain, GST-SBP tag (RBFOX2, Homo sapiens, UniProt O43251-10, residues 100-194)
Method: RNA Bind-n-Seq
Form: RNA
Sample: in vitro
Concentration: 365 nM
Setting: natural RNA segment, single round, ends assumed
Reference: no-protein control
Direction: higher = stronger binding
Quantity: RBNS enrichment (R)
Shared flanks, not repeated: GGGAGUUCUACAGUCCGACGAUC … UGGAAUUCUCGGGUGCCAA
Target sequence (chain): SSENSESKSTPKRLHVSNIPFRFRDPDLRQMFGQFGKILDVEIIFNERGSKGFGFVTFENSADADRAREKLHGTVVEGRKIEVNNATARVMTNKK
CACCCCAUCCUCAAUAACAACCAUCGUAAGAAUGACUGAACCAUUACUCCAGCUGCCUCCCAGAUUAAUGCAUAAAGCCAAGGAACUACCCCGCUCCCUGCGCUAUAGGG: 0.858
ACUCAGAGUUGGUGUGGCCUACCUGGCUAUACAUCUUCAUCCCUCCCCACCAUCCUGGGGAAGUGAUGGUGUGGCCAGGCAGUUAUAGAUUAAAGGCCUGUGAGUACUGC: 0.226
UAUACUCCUGUGUAAUAAGACUGAUGCAGAGCCCUGAAUUUCAUUCUGUCUAUGAAUACCUUUUUGAACAAAGAAAAUUUUAUUGAUUUAAAAAGCUUUUAUAUGAGACA: 0.645
AGUACUCCCACAGGCCUGACUAACCGCCACAGAUCUCUCUUUCUUUCUCUCUGGUGACUUUUUGCUUUUGUGAUAUGGCAGCGGUGUGACAGUCCCAGGAGAGAAGUCAU: 0.486
GAAGGCGCUUGCUGUGGCCGCAGACCGUUCUCCAGGACUCUUUUUUUACCUUGAGCACUUGCCUCCUCAGACUUUUAGACCAGUGGUUUACUGUGCCCUUUCUUCCCAUC: 1.02
UGAGUGAAUUGUUAGAUGUGCACUGAACUCGGGAUGUUGGGGAUUGGAGAGAGAGAAUUGCCAAAGUAACAGCAAAAAUAUCUCUUACUUUGCUUUGUUUAUAAAUAAAU: 1.62
CACAGCCUCCCCUGGCUACCCAAGACAUUCCAGAAUGCUCCACCCUAUUGGCACAAGAAGUGGGGCACCCCCCCCCAGAAGGAACCAGAAACUAAGGCUAUCAAGGAGUG: 0.296
UGUGUCACUGGCAGGAUGCAUCACUCUCCAGGGCCUCUUUUUCGGAGCUACUCCCAAUUCCACUCUUCUGUGAUUCUGGCUGAGCAAGUUCAUGCCGGUAGAGGCUCAUU: 7.81
UCGCCUAUAUCUGCUGCCCAGAGGCCUGUCUCGCACAGGGGUCUCGCCACUGCCAAAGACUCCCAGGAAGCCACUAGCAAAUGGAACUCUGUAACCCCAUCAUGACAAGA: 0.646
GCAAUCUUACAAUUUGACCAGAGAAUAUUUUUUAUUAGUACUAGUUGUUAUUACCUAUAAUUGAGAAUAAGAAAAAUAUGGAAAGUUCCCUCAAAACAGAGAGAUGCUCU: 0.484
AAACAUGUUAAAAAAAAAAAUUAUAAGACAUGGACUAGUCCUCAUUAGCAUGUUUGCAUAGCAACCAGUCAAGAGCAUUUACACUAUUUCUGCUGAUAUACUCACCUUAG: 2.63
GUAGGACACCCCAUACCCAGGCUUGGAGGAGUGCACGCCACACCAAGCCUCUGGGUAGAAUCUGAUGUGGCCUGAAGAAACCCUGAAGGUCACUGUCACUGUGGCGGGAC: 0.308

Series 2
Target: RING finger protein unkempt homolog, zinc fingers 1-6, GST-SBP tag (UNK, Homo sapiens, UniProt Q9C0B0, residues 30-357)
Method: RNA Bind-n-Seq
Form: RNA
Sample: in vitro
Concentration: not given
Setting: RNA with constant flanks, ends assumed
Reference: input RNA pool
Direction: higher = stronger binding
Quantity: bound/input enrichment
Shared flanks, not repeated: GGGAGUUCUACAGUCCGACGAUC … CAACAGAGGAUUGAGCAUCA
Construct (chain): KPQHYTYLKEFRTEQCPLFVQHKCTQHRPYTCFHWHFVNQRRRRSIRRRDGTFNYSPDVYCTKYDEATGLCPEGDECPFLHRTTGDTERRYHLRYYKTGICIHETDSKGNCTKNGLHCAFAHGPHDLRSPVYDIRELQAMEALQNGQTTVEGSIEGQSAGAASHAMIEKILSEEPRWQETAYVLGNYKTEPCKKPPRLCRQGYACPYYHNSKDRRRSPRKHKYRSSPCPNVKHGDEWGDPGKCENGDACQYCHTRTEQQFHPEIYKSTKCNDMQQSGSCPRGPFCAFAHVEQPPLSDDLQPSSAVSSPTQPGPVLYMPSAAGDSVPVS
AUUUAGAGAAUGAUUUCCACCUUUAUGUUUUAAUAUCCUAGGCAUCUGCUGUAAUAAUAUUUCCGAAAAUGUUUGGAAUUUAAGAAAUAACUUGUGUUACUAAUUUGUAUAACCCAUAUC: 1.8 ratio
GCUGAUUUUGAGAAGGUUUUCUGCAUUGGACCAGUUUUCAGAGCUGAAGACUCCAAUACCCACCGACAUCUGACUGAAUUUGUUGGUUUGGAUAUUGAAAUGGCCUUUAAUUAUCAUUAC: 0.214 ratio
GGAGAGGCCCUGCAUUGCCAGCUGUCCGUUCCUCCAUUCAUCUGUUUCUUCUGCUGCCCUCCGUUUGAUCCUCACCAUCCACGUUUUGGCUUCCGUUUGCCCUUAUCAAAGGGUCUCUGC: 0.136 ratio
CCAACACUUUGCUCCCUGGCAACCCCUAAUAUUUGGGAUCUCUCAAUGCUAUUUGCCUUCAUCCGCUUGCUCGUUAUGCUUCCCACUUGGUGGAUUGUGUCUUCCUGGCUGGUAUGGGGA: 0.149 ratio
AUUUGGUCAAGGCCUGAAAGCACCCAGGUGCAGAAUAUCUUGCGCCAGAGAACAGAAAACACCGAUAUAAAAAAAUACUGUGUACAUUAUCUUGAGGAUGUAGGUUCUUUUGAAUACACU: 0.14 ratio
GGAAUGGAUGCUCUUCCUUAUAUUGAUUUAAUUGACCCAGCUGAGAUUGAUCUCCUAUUAAUCCGUCAUUUCCAUUUGGAUCACUGUGGAGCUCUGCCCUGGUUUCUACAGAAGACAAGU: 0.422 ratio
GCUCUAGUUCUUAACAACCGACACUCCUACAAGAUUUAGAAAAAAGUUUACAACAUAAUCCCGUUUACAGAAAAAUCUUGUGCUAGAAUACUUUUUAAAAGGUAUUUUGAAUACCAUUAA: 8.57 ratio
AGGAGCGCGCCAUGGCGGUGUCCGAGAGUCAGCUGAAGAAGAUGAUGUCCAAGUACAAAUACCGAGAUCUAACCGUCCGUCAAACUGUCAAUGUCAUCGCUAUGUACAAAGAUCUCAAAC: 0.0646 ratio
CGGAGUCGGGAGGCUGAGUGUUCAUUCCAGCAUGUCGGAAGGGGAGUCCCAAACAGCCGUCAGCAGUGGCUCAGACCCAAAGGUAGAAUCCUCAUCUUUAGCUCCUGGCCUGACUUCUGU: 0.175 ratio
AAAGAUAUCAUUACCAAGGUUGCCAAUGUGGAACUAUACUACAGAGCAAUACAGUUCUACUCCGAAUUCAAGCCUCUGUUGUUAAAUGAUUUGCUGAUGGUGCUGUCUCCACGGUUGGAU: 0.18 ratio
GCUUGCCAGAAGAUGAUCUUAGAGUUGUUUUCUAAGGUGCCAUCCUUGGUAGGAAGCUUUAUCCGAAGCCAAAAUAAAGAAGACUAUGCUGGCCUAAAAGAAGAAUUUCGUAAAGAAUUU: 0.188 ratio

Series 3
Target: Prothrombin, mature alpha-thrombin (F2, Homo sapiens, UniProt P00734)
Method: aptamer microarray, sandwich
Form: DNA with 2'F-ANA
Sample: in vitro
Concentration: 200 nM
Setting: whole 15-mer aptamer, many near background
Together with: Cy3 exosite-II aptamer, 400 nM
Direction: higher = stronger binding
Quantity: mean fluorescence intensity
Oligonucleotide: GGTTGGTGTGGTTGG
2'F-ANA at 1 3 5 7 9 12 13 14 15: 104 a.u.
2'F-ANA at 1 3 8 9 10 11 13 14 15: 62 a.u.
2'F-ANA at 1 2 3 4 6 8 9 10 12 13 14: 55.8 a.u.
2'F-ANA at 3 4 5 9 10 12: 63.7 a.u.
2'F-ANA at 3 5 8 9 10 11 13 14 15: 53.6 a.u.
2'F-ANA at 3 10 11 12 13: 613 a.u.
2'F-ANA at 1 3 7 8 9 10 11 12 15: 110 a.u.
2'F-ANA at 6 7 10 11 12 13 15: 173 a.u.
2'F-ANA at 2 9 10 12 14: 90.6 a.u.
2'F-ANA at 1 3 6 7 8 9 12 15: 577 a.u.
2'F-ANA at 1 3 4 6 7 8 9 11 13 15: 141 a.u.
2'F-ANA at 1 3 5 6 7 9 10 12: 48.2 a.u.
2'F-ANA at 1 3 4 5 6 8 9 10 13 15: 48.5 a.u.
2'F-ANA at 1 4 5 6 7 9 10 14: 47 a.u.
2'F-ANA at 1 4 11 14 15: 55.4 a.u.
2'F-ANA at 1 4 7 9 10 12 13 14: 45.9 a.u.
2'F-ANA at 2 3 5 10: 70.8 a.u.
2'F-ANA at 1 6 7 8 9 14 15: 77.5 a.u.
2'F-ANA at 3 4 6 7 9 13: 391 a.u.
2'F-ANA at 4 9 10 11 13: 67 a.u.
2'F-ANA at 1 2 3 4 5 9 10 12 15: 48 a.u.
2'F-ANA at 1 5 6 7 8 9 11 12 13 14: 47.5 a.u.
2'F-ANA at 1 3 6 8 9 10 11 13 14: 61.8 a.u.
2'F-ANA at 1 5 7 9 11 14 15: 47.1 a.u.
2'F-ANA at 6 7 8 9 11 13 14 15: 155 a.u.

Series 4
Target: Histone acetyltransferase KAT6A, winged helix 1, GST fusion (KAT6A, Homo sapiens, UniProt Q92794, residues 1-85)
Method: protein binding microarray
Form: double-stranded DNA, one strand shown
Sample: in vitro
Concentration: not given
Setting: 8-mer, flanks averaged, mean of 2 arrays, mostly near background
Reference: not given
Direction: higher = stronger binding
Quantity: E-score
Residues (chain): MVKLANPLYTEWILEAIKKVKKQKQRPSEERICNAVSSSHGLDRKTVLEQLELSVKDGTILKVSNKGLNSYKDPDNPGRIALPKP
AGACTTCG: -0.207
CACTCGAC: -0.0322
AGAGTGAA: -0.298
ACACTGCA: -0.16
GAACCCGA: 0.0963
TATCGCCA: -0.00687
CCAAAATC: -0.0421
GGGGTTAC: 0.198
AGCATGGC: -0.0731
AACGCAAC: -0.086
CCCCCATA: -0.0437
CACTAATG: -0.129
ATACATTG: -0.206
ACGAAGAT: -0.148
AATGAATA: -0.0841
AGTCCTCC: -0.0373
CAGTACCG: 0.294
CATATAGG: -0.0794
CAAAGAAC: -0.17
ACTGGCCA: -0.243
GAACGAGC: -0.0625
GGCCGGCA: 0.414
AATGGGGG: -0.134
ATGAGGGG: -0.205
CTGGAGTC: -0.268

Series 5
Target: Sal-like protein 4, full length isoform B (SALL4, Homo sapiens, UniProt Q9UJQ4-2, residues 1-616)
Method: universal PBM
Form: double-stranded DNA, one strand shown
Sample: in vitro
Concentration: not given
Setting: 8-mer, flanks averaged, mean of replicates
Direction: higher = stronger binding
Quantity: E-score
Construct (chain): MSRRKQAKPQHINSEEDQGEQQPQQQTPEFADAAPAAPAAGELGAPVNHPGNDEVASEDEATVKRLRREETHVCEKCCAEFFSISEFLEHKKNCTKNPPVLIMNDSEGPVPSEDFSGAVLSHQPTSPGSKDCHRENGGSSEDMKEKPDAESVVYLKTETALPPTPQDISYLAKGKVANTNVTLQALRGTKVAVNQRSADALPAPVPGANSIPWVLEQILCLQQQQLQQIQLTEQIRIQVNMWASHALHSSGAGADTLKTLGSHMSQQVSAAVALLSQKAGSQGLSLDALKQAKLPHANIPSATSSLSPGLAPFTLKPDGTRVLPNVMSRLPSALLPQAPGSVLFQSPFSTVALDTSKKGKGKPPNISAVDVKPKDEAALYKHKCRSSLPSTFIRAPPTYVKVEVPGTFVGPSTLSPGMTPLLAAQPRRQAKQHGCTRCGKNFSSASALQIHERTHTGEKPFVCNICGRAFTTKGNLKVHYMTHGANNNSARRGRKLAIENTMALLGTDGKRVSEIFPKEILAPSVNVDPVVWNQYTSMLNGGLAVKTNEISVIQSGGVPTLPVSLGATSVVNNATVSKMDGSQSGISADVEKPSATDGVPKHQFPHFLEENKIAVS
ACAACACG: 0.018
CTACCAGC: -0.169
CATCATCC: -0.0958
CGTCGGCA: -0.305
GGTGGGAA: -0.152
GGCATGCC: -0.247
ATCGCTAG: 0.00158
CGGAGCTA: -0.154
ATGGGCCA: -0.187
CGGGATGC: -0.303
AAACTTAG: 0.115
AGGCACGC: -0.387
AAGGGCGA: -0.171
GACGTATA: 0.193
CGAGGTAC: -0.131
AGACAACA: 0.116
ACACGTAG: -0.0103
CTACTAAC: 0.0909
ACTCTTTC: -0.0261
CACACATA: 0.222
CGCGTGAC: -0.178
CACAGAGA: 0.00399
CGATCTTA: -0.0416
CATAAACC: 0.222
AACAGCGG: -0.112

A few entries again (series 4):
AGCATGGC: -0.0731
CAGTACCG: 0.294
AATGGGGG: -0.134
CATATAGG: -0.0794
CCAAAATC: -0.0421
CACTCGAC: -0.0322
TATCGCCA: -0.00687
AACGCAAC: -0.086
GAACGAGC: -0.0625
ATACATTG: -0.206
ACACTGCA: -0.16
ACTGGCCA: -0.243
AGAGTGAA: -0.298
ACGAAGAT: -0.148
ATGAGGGG: -0.205
AATGAATA: -0.0841
